Measurements pooled from the literature.
Each line is one published result; not all experiments were run side by side.
Sample: plasma
Route: oral

The Tmax of `Nc1ncc(-c2cnn(CCO)c2)c2scc(-c3ccc(NC(=O)Nc4cccc(F)c4)cc3)c12` is reported as 3.3 h (human; 440 mg, patients).
`CCCOc1ccc([C@H]2CNC(=O)N2c2ccc3[nH]cnc3c2)cc1` has a Tmax of 0.5 h (human; 30 mg, single dose, fasted).
With `CS(=O)(=O)n1cc2c(n1)CN([C@H]1CO[C@H](c3cc(F)ccc3F)[C@@H](N)C1)C2` the Tmax was 4 h (male human; 50 mg, multiple doses, healthy volunteers).
`CC(=O)N[C@H]1CC[C@H](NC(=O)CN2CCN(c3nncc(-c4ccc(C)cc4)n3)CC2)CC1` has a Tmax of 1.3 h (human; 10 mg, single dose, fasted, healthy volunteers).
`COc1cccc(-c2ccc(NC(=O)C3=C(C(=O)O)CCC3)c(F)c2)c1` gave a Tmax of 4 h (male human; 20 mg, single dose, fasted, healthy volunteers).
`C#C[C@]1(CO)O[C@@H](n2cnc3c(N)nc(F)nc32)C[C@@H]1O` gave a Tmax of 0.5 h (human; 400 mg, single dose, fasted).
With `CNc1nc(Nc2ccc(-n3cnc(C)n3)c(OC)c2)nc2c1CC[C@H]2c1ccc(F)cc1` the Tmax was 3.5 h (human; 300 mg, single dose, fasted, healthy volunteers).
`C[C@@H]1CCC[C@H](n2cnc(-c3cc(Cl)ccc3-n3cc(Cl)nn3)cc2=O)c2cc(ccn2)-c2c(cnn2C(F)F)NC1=O` gave a Tmax of 3 h (human; 300 mg, single dose, fasted, healthy volunteers).
For `C[C@H](N)C(=O)N1C[C@H](CCCB(O)O)[C@](N)(C(=O)O)C1`, the Tmax was 2 h (human; 50 mg twice daily, multiple doses, patients).
`O=C(c1nc2n(n1)[C@H](c1ccccc1)C[C@@H]2F)C1CC1` has a Tmax of 1.29 h (human; 5 mg, single dose, fasted, healthy volunteers).

Excerpt of the above:
With `CNc1nc(Nc2ccc(-n3cnc(C)n3)c(OC)c2)nc2c1CC[C@H]2c1ccc(F)cc1` the Tmax was 3.5 h (human; 300 mg, single dose, fasted, healthy volunteers).
